Measured values of several laboratories.
Compare with care: the assays were run in different laboratories. Values joined by “and” are separate records of one study, mostly repeats; a detail may differ. Numbers after ± are the reported error.
IDE: Insulin-degrading enzyme (IDE, Homo sapiens, UniProt P14735)

CNc1ccc(-c2nc3ccc(O)cc3s2)cc1 [carbon-11 labelled]  SUV (microPET/CT imaging; B6SJL mouse, normal, heart; intravenous, 20 min): 0.74 ± 0.228
O=C(Nc1cnccc1Cl)N1CCN(Cc2ccc3c(c2)OC(F)(F)O3)CC1  renal clearance (elderly men and women, urine; oral, 100 mg once daily, day 10): 0.0114 L/h
Cc1cc(-c2nccc3c2ccn3CC(=O)Nc2ccc(-c3cnccn3)cn2)ccn1  subjects with cardiac disorders TEAEs (human; SAD part, single 7 mg dose): 0%
CO[C@H]1CC[C@H](N2C(=O)CNc3ncc(-c4ccc(C(C)(C)O)nc4)nc32)CC1  renal clearance (patients, urine; oral, 15 mg, day -1, geometric mean): 0.0726 L/h
Cc1cccc(-c2ccc([C@@H]3[C@@H](CO)N4CCCCN(C(=O)c5ccc6c(c5)OCO6)C[C@@H]34)cc2)c1  EC50 (IDE; enzyme activity, inhibitor, fluorogenic kinetic; added: Mca-RPPGFSAFK(Dnp)-OH substrate): > 100 µM
COc1cccnc1-c1nc2ccccn2c1N(C)c1ccc(F)cc1  CC50 (peritoneal macrophages, Swiss mice; 5 days, 5% fetal calf serum): 7.94 µM
Cn1ncnc1[C@H]1c2n[nH]c(=O)c3cc(F)cc(c23)N[C@@H]1c1ccc(F)cc1  patients with adverse event (measured: Dyspepsia; advanced solid tumour patients; oral, 0.5 mg single dose, alone or 2 with itraconazole): 12%
CO[C@H]1C[C@@H]2CC[C@@H](C)[C@@](O)(O2)C(=O)C(=O)N2CCCC[C@H]2C(=O)O[C@H]([C@H](C)C[C@@H]2CC[C@@H](O)[C@H](OC)C2)CC(=O)[C@H](C)/C=C(\C)[C@@H](O)[C@@H](OC)C(=O)[C@H](C)C[C@H](C)/C=C/C=C/C=C/1C  heart rate (healthy adult horses; intravenous, 0.06 mg/kg, 1 h): 35 ± 3.3 beats/min
CCCOc1ccc([C@H]2CNC(=O)N2c2ccc3[nH]cnc3c2)cc1  AUC(0-24h) (human elderly fasted, CSF; oral, 300 mg twice daily capsule, day 7, geometric mean): 362 ng·h/mL
CC(C)C[C@H](NC(=O)C[C@H](O)[C@H](CC(C)C)NC(=O)[C@H](Cc1c[nH]cn1)NC(=O)CNC(=O)[C@@H](NC(=O)[C@H](C)NC(=O)[C@H](Cc1c[nH]c2ccccc12)NC(=O)[C@H](CCC(N)=O)NC(=O)[C@@H](Cc1ccccc1)NC(=O)COCCOCCNC(=O)CCC(C(=O)O)N1CCN(CC(=O)O)CCN(CC(=O)O)CC1)C(C)C)C(N)=O (stereo partly drawn) [lutetium-177 labelled]  tissue uptake (female BALB/c nu/nu mice, bone; intravenous, 50 pmol, 1 h): 0.3 ± 0.1 %ID/g
N=S(c1ccc(C(F)(F)F)cc1)c1cccnc1 (stereo not drawn)  metabolic stability (human liver microsomes; reference: hepatic blood flow): < 23%
C[C@@H]1OC(=O)[C@H](Cc2ccccc2)[C@H]1O  DT50 (aerobic dark soil incubation; sandy loam soil; 20 °C, persistence endpoint): 1.45 days
CCN1CCN(Cc2ccc(NC(=O)c3ccc(C)c(NC(=O)c4cncc(-c5cccs5)c4)c3)cc2C(F)(F)F)CC1  AUC/dose (C57BL/6 mouse, plasma; intraperitoneal, 10 mg/kg, 0.25 to 8.0 h, single dose): 0.12 kg·µg·h/mL/mg
COCc1cc(C(=O)Nc2cc([C@H]3CC[C@@H](OC(=O)NC(C)C)C3)[nH]n2)n(C)n1  Tmax (OVCAR-3 xenograft, NOD/SCID gamma mice, plasma; oral, 75 twice daily, tumour growth inhibition study): 7.5 h
CN1CCC[C@H](CN2c3ccccc3Sc3ccccc32)C1.Cl  AUC(0-t) (Wistar rat female, liver; oral, 16 mg/kg): 138000 ng·h/mL
CC(C)(C(=O)N1CCOc2c(C#N)cncc2C1)C(F)F  subjects with adverse event (measured: Lymphadenopathy; human; oral, 15 mg twice daily, 14 days, multiple ascending dose): 12.5%
CNCc1ccc(-c2[nH]c3cc(F)cc4c3c2CCNC4=O)cc1  malignant neoplasm progression incidence (human patients; oral, 600 mg twice daily, grade 1): 0%
Cc1ccc(-c2cc(C(F)(F)F)nn2-c2ccc(S(N)(=O)=O)cc2)cc1  ulcer index (rat, stomach; concentration not given, 4 h; reference: indomethacin): 26.9%
Cc1cccc(CNC(=O)c2cn(CCNC(=O)c3ccccc3Sc3c([N+](=O)[O-])ncn3C)c3cc4c(cc3c2=O)OC(F)(F)O4)n1  AUC(0-t) (Sprague-Dawley rat, male, plasma; intramuscular, 10 mg/kg of parent compound): 200 ± 47.1 ng·h/mL
CC[C@H](C)[C@H](NC(=O)[C@H](Cc1ccccc1)NC(=O)[C@H](CCC(=O)O)NC(=O)[C@H](CCCCNC(=O)COCCOCCNC(=O)COCCOCCNC(=O)CC[C@H](NC(=O)CCCCCCCCCCCCCCCCC(=O)O)C(=O)O)NC(=O)[C@H](C)NC(=O)[C@H](C)NC(=O)[C@H](CCC(N)=O)NC(=O)CNC(=O)[C@H](CCC(=O)O)NC(=O)[C@H](CC(C)C)NC(=O)[C@H](Cc1ccc(O)cc1)NC(=O)[C@H](CO)NC(=O)[C@H](CO)NC(=O)[C@@H](NC(=O)[C@H](CC(=O)O)NC(=O)[C@H](CO)NC(=O)[C@@H](NC(=O)[C@H](Cc1ccccc1)NC(=O)[C@@H](NC(=O)CNC(=O)[C@H](CCC(=O)O)NC(=O)C(C)(C)NC(=O)[C@@H](N)Cc1cnc[nH]1)[C@@H](C)O)[C@@H](C)O)C(C)C)C(=O)N[C@@H](C)C(=O)N[C@@H](Cc1c[nH]c2ccccc12)C(=O)N[C@@H](CC(C)C)C(=O)N[C@H](C(=O)N[C@@H](CCCNC(=N)N)C(=O)NCC(=O)N[C@@H](CCCNC(=N)N)C(=O)NCC(=O)O)C(C)C  serum inflammatory cytokines (measured: TNF-α, IL-10, IL-1β, IL-6; C57BL/6N mice, high-fat diet-induced obese, serum; intraperitoneal, dose not given, 29 days; reference: vehicle): no effect
OC[C@H]1O[C@@H](c2ccc(Cl)c(Cc3ccc(O[C@H]4CCOC4)cc3)c2)[C@H](O)[C@@H](O)[C@@H]1O  change in eGFR (Japanese type 1 diabetes patients, blood; 2.5 mg, day 28; reference: baseline): 2.82 mL/min/1.73 m²
N#Cc1ccc2c(c1)[C@H]1CCCN(C(=O)c3ccc4[nH]cnc4c3)[C@H]1C2  SHBG level (human males; 20 mg, end of trial): 36.3 nmol/L
COC(=O)N[C@@H](C)CNc1nccc(-c2cn(C(C)C)nc2-c2cc(Cl)cc(NS(C)(=O)=O)c2F)n1  AUClast geometric mean ratio (human, plasma; oral, single dose, added: diltiazem; reference: compound alone): 184%
CCc1cc(C(=O)NC)c2nccc(N3CCc4c(cc(Cn5ccnc5)cc4-c4cn(C)nc4C(F)(F)F)C3=O)c2c1  change in clinical chemistry or haematology parameter (measured: TBIL; Sprague Dawley rat; oral, 100 mg/kg once daily, 7 days; reference: vehicle): 4.4%
COc1nc(-c2cccc(-c3ccccc3)c2C)ccc1CNCCNC(=O)CCCCCCCCCCC(=O)N1CCN(CCNC(=O)c2cc3c(=O)n4cccc(C)c4nc3n(CCc3cccs3)c2=N)CC1  serum biochemistry (measured: BUN, creatinine, GGT, ALT, total bilirubin; mice, serum; concentration not given; reference: control group): no effect
Nc1ncnc2c1c(Oc1cc(C(F)(F)F)ccn1)nn2[C@@H]1CCCC[C@H]1O  metabolic stability (rat liver microsomes): stable
Cc1ccccc1-c1ccc([C@H]2[C@@H](CO)N3CCCCN(C(=O)NC4CCCC4)C[C@H]23)cc1  EC50 (IDE; enzyme activity, inhibitor, fluorogenic kinetic; added: Mca-RPPGFSAFK(Dnp)-OH substrate): 0.88 µM
Cc1ccc([C@@H]2O[C@H](CO)[C@@H](O)[C@H](O)[C@H]2O)cc1Cc1ccc(-c2ccc(F)cc2)s1  urinary magnesium excretion change (Japanese type 2 diabetes patients; 400 mg, day 17, 24 h urine collection; reference: baseline): 25.7 mg
COc1nnc2ccc(N3CCC(c4ccc(OCCN5CCN(C)C(=O)[C@H]5C)cc4)CC3)nn12  AUClast (human, plasma; oral, 40 mg once daily, single dose, monotherapy): 0.669 µM·h
CCOc1c([C@H](C)n2nc(C)c3c(N)ncnc32)cc(Cl)c(F)c1[C@@H]1CNC(=O)C1  share of ECG observations (measured: ΔQTcF ≤ 30 ms; previously treated B-cell malignancy; oral, dose not given, baseline QTcF ≤450 ms, all doses): 96.9%
C=CC[C@@H]1/C=C(\C)C[C@H](C)C[C@H](OC)[C@H]2O[C@@](O)(C(=O)C(=O)N3CCCC[C@H]3C(=O)O[C@H](/C(C)=C/[C@@H]3CC[C@@H](O)[C@H](OC)C3)[C@H](C)[C@@H](O)CC1=O)[C@H](C)C[C@@H]2OC  patients with C0 in therapeutic range (kidney transplant recipients, whole blood; oral, dose not given, late post-transplant phase): 45%
N#Cc1ccc2c(c1)[C@H]1CCCN(C(=O)c3ccc4[nH]cnc4c3)[C@H]1C2  half-life steady state (human, plasma; oral, 240 mg once daily, steady state): 107 h
CCc1c(-c2ccccc2)c(-c2ccccc2)nn1-c1ccccc1-c1cccc(OCC(=O)O)c1  Vz/F observed (Sprague-Dawley rat; oral): 7.43 L/kg and 8.11 L/kg and 8.61 L/kg
